Results gathered from unrelated publications.
Lines come from different studies, so protocols differ. Values joined by “and” are separate records of one study, mostly repeats; a detail may differ. ± gives the spread as reported.
PARP1: Poly [ADP-ribose] polymerase 1 (PARP1, Homo sapiens, UniProt P09874)
Chain of UniProt P09874 (whole entry, looked up): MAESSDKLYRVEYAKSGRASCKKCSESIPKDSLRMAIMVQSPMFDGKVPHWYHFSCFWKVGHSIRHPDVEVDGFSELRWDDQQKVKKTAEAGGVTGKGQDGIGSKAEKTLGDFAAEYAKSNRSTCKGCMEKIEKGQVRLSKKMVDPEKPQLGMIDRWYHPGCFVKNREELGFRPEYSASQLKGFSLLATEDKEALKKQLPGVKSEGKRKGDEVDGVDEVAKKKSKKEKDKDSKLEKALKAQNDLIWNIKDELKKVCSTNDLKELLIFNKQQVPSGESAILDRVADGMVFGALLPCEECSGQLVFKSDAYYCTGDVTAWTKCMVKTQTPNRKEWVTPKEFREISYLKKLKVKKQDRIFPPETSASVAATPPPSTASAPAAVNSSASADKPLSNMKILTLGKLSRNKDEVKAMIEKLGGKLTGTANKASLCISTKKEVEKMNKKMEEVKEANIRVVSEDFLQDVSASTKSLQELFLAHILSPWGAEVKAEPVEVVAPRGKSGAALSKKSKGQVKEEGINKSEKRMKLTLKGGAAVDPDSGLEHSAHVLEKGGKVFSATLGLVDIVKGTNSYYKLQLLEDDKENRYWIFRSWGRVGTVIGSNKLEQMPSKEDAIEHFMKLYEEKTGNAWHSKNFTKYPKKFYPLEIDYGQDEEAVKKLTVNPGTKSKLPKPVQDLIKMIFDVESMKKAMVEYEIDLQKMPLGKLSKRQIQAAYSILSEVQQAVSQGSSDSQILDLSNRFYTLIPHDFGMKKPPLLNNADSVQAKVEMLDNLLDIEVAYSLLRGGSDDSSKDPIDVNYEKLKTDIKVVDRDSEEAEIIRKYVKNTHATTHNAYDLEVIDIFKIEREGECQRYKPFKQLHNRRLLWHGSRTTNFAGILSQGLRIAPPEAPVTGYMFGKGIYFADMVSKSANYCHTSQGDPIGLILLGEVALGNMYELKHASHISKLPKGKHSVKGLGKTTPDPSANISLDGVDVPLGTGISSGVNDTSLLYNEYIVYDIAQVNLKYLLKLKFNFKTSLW
FAAH: Fatty-acid amide hydrolase 1 (FAAH, Homo sapiens, UniProt O00519)
Chain of UniProt P61073 (whole entry, looked up): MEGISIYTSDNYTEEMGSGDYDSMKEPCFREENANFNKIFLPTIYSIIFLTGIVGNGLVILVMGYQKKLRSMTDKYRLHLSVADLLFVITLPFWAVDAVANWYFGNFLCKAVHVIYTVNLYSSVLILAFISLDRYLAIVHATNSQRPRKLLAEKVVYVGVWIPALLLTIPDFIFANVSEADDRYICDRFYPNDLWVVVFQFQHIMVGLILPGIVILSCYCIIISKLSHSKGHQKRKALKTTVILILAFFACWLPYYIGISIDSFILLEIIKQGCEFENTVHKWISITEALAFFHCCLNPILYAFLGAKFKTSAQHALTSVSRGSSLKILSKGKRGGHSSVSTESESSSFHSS
Chain of UniProt O00519 (whole entry, looked up): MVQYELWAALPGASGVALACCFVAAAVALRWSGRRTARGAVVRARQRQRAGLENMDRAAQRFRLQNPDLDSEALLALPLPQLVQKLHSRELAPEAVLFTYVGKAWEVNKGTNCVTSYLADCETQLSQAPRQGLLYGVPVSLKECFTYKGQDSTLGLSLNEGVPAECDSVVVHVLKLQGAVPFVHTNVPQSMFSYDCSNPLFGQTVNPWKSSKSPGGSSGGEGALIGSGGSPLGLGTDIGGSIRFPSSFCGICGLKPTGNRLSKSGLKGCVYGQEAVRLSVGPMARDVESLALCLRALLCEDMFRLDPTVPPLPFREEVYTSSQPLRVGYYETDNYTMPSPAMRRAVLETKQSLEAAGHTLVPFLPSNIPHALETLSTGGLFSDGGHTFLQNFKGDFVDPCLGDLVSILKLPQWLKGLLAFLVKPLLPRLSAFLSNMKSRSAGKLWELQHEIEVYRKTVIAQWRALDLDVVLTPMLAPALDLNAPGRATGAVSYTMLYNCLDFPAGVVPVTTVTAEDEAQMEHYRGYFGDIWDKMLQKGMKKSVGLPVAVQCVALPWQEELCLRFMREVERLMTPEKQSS
Chain of UniProt Q96P56 (whole entry, looked up): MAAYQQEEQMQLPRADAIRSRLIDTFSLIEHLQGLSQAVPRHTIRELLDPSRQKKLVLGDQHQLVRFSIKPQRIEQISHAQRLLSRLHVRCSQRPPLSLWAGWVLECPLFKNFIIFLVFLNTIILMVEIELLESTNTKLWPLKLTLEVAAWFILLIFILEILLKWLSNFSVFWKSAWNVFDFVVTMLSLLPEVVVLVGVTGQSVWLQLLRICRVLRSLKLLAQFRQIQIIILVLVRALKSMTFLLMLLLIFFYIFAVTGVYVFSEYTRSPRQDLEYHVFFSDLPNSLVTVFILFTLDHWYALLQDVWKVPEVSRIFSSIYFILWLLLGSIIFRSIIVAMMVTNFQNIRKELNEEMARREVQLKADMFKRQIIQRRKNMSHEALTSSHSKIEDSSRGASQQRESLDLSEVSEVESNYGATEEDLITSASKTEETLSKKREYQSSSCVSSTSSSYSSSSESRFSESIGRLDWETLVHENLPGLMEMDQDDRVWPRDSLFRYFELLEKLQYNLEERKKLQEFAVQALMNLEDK
Chain of UniProt Q8NEC5 (whole entry, looked up): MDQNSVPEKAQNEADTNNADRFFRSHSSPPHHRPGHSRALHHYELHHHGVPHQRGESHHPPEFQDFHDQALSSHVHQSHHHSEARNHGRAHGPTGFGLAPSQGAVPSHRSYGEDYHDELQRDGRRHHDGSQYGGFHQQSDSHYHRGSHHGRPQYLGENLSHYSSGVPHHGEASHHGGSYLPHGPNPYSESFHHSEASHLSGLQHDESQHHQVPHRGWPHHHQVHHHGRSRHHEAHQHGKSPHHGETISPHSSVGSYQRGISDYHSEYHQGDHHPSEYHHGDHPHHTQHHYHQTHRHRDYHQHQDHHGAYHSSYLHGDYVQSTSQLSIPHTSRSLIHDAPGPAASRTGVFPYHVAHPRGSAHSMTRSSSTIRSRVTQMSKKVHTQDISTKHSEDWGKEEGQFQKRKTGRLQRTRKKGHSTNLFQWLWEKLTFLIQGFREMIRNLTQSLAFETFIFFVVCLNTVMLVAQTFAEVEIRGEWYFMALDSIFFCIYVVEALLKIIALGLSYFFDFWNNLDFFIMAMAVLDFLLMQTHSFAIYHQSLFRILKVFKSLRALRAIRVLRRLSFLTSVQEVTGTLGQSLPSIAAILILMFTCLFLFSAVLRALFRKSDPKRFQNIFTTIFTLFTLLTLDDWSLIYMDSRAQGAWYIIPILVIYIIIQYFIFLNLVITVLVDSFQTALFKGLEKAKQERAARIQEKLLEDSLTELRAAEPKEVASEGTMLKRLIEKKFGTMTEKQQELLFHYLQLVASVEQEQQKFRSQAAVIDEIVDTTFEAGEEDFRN
Chain of UniProt P17948 (whole entry, looked up): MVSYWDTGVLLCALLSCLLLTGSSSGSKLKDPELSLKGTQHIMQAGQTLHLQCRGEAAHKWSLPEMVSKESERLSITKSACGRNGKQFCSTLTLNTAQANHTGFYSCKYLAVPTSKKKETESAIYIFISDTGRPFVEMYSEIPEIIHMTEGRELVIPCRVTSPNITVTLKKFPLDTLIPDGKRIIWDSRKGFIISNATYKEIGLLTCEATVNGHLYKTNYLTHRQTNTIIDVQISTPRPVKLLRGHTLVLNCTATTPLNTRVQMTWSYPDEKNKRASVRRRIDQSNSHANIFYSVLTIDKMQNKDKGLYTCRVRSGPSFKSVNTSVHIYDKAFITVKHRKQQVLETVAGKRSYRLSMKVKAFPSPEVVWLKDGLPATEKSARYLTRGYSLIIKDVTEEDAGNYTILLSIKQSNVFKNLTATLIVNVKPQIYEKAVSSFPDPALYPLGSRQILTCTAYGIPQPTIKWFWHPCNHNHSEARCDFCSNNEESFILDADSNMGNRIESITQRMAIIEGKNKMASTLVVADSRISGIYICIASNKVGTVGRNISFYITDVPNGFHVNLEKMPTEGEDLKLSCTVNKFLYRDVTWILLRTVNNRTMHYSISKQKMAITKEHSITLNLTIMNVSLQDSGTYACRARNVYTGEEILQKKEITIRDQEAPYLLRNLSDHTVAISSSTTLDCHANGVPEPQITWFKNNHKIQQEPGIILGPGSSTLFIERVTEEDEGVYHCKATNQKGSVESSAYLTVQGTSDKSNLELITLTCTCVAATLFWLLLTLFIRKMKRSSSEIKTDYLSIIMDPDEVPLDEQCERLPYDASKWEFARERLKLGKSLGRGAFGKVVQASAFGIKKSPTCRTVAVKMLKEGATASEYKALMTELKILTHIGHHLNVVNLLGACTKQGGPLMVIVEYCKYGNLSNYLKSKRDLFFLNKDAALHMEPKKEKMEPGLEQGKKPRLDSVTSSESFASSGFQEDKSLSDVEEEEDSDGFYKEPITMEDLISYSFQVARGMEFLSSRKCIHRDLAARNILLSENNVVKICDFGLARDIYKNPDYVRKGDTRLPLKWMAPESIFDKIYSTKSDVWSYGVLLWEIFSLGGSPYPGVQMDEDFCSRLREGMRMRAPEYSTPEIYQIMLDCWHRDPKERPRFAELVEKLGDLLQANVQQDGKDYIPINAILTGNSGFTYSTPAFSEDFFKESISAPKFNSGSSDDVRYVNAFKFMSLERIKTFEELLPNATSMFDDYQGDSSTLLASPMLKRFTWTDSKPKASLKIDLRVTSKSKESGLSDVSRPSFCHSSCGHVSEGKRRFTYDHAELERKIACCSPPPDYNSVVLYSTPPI
Chain of UniProt Q86XQ3 (whole entry, looked up): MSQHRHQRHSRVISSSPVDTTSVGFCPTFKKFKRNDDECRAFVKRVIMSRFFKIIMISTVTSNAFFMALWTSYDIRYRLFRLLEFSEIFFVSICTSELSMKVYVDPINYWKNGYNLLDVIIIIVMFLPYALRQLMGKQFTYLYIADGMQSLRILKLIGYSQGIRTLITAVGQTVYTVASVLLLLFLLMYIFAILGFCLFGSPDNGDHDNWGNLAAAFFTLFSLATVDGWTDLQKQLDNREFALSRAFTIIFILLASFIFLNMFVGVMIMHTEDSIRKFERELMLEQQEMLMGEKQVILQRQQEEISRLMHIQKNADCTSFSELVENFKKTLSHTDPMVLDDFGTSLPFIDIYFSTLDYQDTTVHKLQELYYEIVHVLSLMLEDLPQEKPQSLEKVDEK

Compound | target | assay | system | conditions | IC50
CCc1ccc(Cl)cc1-n1c(C=C(C)C)c(C(=O)N2CCNCC2)cc(-c2nc(-c3ccc(Cl)cc3)cs2)c1=O (single isomer, unassigned) | Isocitrate dehydrogenase [NADP] cytoplasmic (IDH1, Homo sapiens, UniProt O75874, R132C) | enzyme activity, inhibitor |  |  | 540 nM
CC(=O)Nc1ccc(NC(=S)NC(=O)c2ccc(C(C)(C)C)cc2)cc1 | NAD-dependent protein deacetylase sirtuin-1 (SIRT1, Homo sapiens, UniProt Q96EB6) |  |  |  | > 300000 nM
CCN(CC)CCOc1ccc(NS(=O)(=O)c2ccc(CN3CCCCC3)cc2)cc1 | C-X-C chemokine receptor type 4 (CXCR4, Homo sapiens, UniProt P61073) | binding, inhibitor, competition binding | MDA-MB-231 |  | 21 nM and 21.1 nM
Cc1ccc(S(=O)(=O)/C=C/C#N)cc1 | Proteasome Macropain subunit MB1 (PSMB5, Homo sapiens, UniProt P28074) | enzyme activity |  | with: Suc-LLVY-AMC substrate, ATP | > 30000 nM
CCN(CC)CC1CCN(c2ncc3ncnc(Nc4ccc(F)c(Cl)c4)c3n2)CC1 | Vascular endothelial growth factor receptor 1 (FLT1, Homo sapiens, UniProt P17948) |  |  |  | > 10000 nM
COCC(=O)O[C@]1(CCN(C)CCCc2nc3ccccc3[nH]2)CCc2cc(F)ccc2[C@@H]1C(C)C | CatSper channel complex (Homo sapiens, UniProt Q7RTX7+Q86XQ3+Q8NEC5+Q96P56) | calcium influx, inhibitor | human sperm | pH 8.2, with: 140 mM K+ | 17400 nM
CC(C)NCc1ccc(C[C@@H]2NC(=O)[C@@H](N(C)C(=O)c3ccc4ccccc4c3)NC(=O)[C@H](Cc3ccccc3)NC(=O)[C@H](N)CSSC[C@@H](C(=O)N[C@@H](Cc3ccc4ccccc4c3)C(N)=O)NC(=O)[C@H](Cc3ccccc3)NC2=O)cc1 | Somatostatin receptor type 5 (SSTR5, Homo sapiens, UniProt P35346) | ligand displacement, radioligand |  | cell membranes | 181 nM
C[C@H](CCC(=O)O)[C@H]1CC[C@H]2[C@@H]3CC[C@@H]4C[C@H](O)CC[C@]4(C)[C@H]3CC[C@]12C | N-acyl-phosphatidylethanolamine-hydrolyzing phospholipase D (Homo sapiens, UniProt Q6IQ20) | enzyme activity, inhibitor |  | 30 min, 25 °C, with: deoxycholic acid 0.2% w/v, PED6 | ~68000 nM
NC(=O)c1cccc2c1O[C@@H](CN1CCN(c3ncccn3)CC1)CO2 | PARP1 |  |  |  | > 5000 nM
CNc1ccc(C(=O)OCc2ccccc2)cc1 | FAAH | enzyme activity, inhibitor, fluorescence |  | with preincubation | 18200 nM
O=C(NC1CCCCC1)OCc1cn(Cc2ccccc2Cl)nn1 | FAAH | enzyme activity, inhibitor, fluorescence |  | cell membranes | 1070 nM
[Zn+2] | Glutamate NMDA receptor; Grin1/Grin2a (Grin1/Grin2a, Rattus norvegicus, UniProt P35439+Q00959) |  |  | pH 7.3 | 50 nM
CC(C)C[C@H](NC(=O)[C@H](CCc1ccccc1)NC(=O)CN1CCOCC1)C(=O)N[C@@H](Cc1ccccc1)C(=O)N[C@@H](CC(C)C)C(=O)[C@@]1(C)CO1 | 20S proteasome beta subunits, part β2 subunit (Plasmodium falciparum, UniProt Q8I261+Q8I6T3) | enzyme activity |  | with: Z-VLR-amc 25 µM, PA28α 200 nM | 13.4 ± 0.8 nM
Cn1c(=O)c(=O)n(C)c2cc(S(=O)(=O)Nc3ccc(S(N)(=O)=O)cc3)ccc21 | Dipeptidyl peptidase 4 (DPP4, Homo sapiens, UniProt P27487) | enzyme activity, inhibitor, fluorescence |  |  | 0.6 nM
N#Cc1c(-c2ccc(Cl)cc2)cc(-c2ccc(NC(=O)CSc3nc4ccccc4c(=O)n3-c3ccccc3)cc2)nc1N | PARP1 | enzyme activity, inhibitor, absorbance |  |  | 155 nM
O=C(NCc1ccc(F)cc1)C1CCN(S(=O)(=O)c2cc(Cl)cc(Cl)c2)CC1 | Na(+)/citrate cotransporter (Homo sapiens, UniProt Q86YT5) | citrate uptake, inhibitor | HepG2 | 30 min uptake, no preincubation | 3000 nM
Cc1nc2ccc(NC(=O)CCNC(=O)CCCc3ccc(CC(C(=O)O)C(=O)O)cc3)cc2s1 | L-lactate dehydrogenase B chain (LDHB, Homo sapiens, UniProt P07195) | inhibitor, NADH fluorescence |  | NADH competition, with: 1440 µM pyruvate, 40 µM NADH | 3600 ± 400 nM
O=C(O)[C@H]1NCC[C@@H]1[C@@H](C(=O)O)c1ccccc1 | AMPA receptor, rat | binding | cortical synaptosomes | with: [3H]-AMPA | > 100000 nM
COc1cccc2cc(-c3nnc(SCC(=O)Nc4ccc(C)cc4C)n3-c3ccccc3)oc12 | fungal tyrosinase | enzyme activity, inhibitor, dopachrome absorbance |  | pH 6.8, 37 °C, with: L-tyrosine substrate | 1580 ± 5380 nM

Some of these lines once more:
Compound | target | assay | system | conditions | IC50
O=C(NCc1ccc(F)cc1)C1CCN(S(=O)(=O)c2cc(Cl)cc(Cl)c2)CC1 | Na(+)/citrate cotransporter (Homo sapiens, UniProt Q86YT5) | citrate uptake, inhibitor | HepG2 | 30 min uptake, no preincubation | 3000 nM
Cc1nc2ccc(NC(=O)CCNC(=O)CCCc3ccc(CC(C(=O)O)C(=O)O)cc3)cc2s1 | L-lactate dehydrogenase B chain (LDHB, Homo sapiens, UniProt P07195) | inhibitor, NADH fluorescence |  | NADH competition, with: 1440 µM pyruvate, 40 µM NADH | 3600 ± 400 nM
O=C(O)[C@H]1NCC[C@@H]1[C@@H](C(=O)O)c1ccccc1 | AMPA receptor, rat | binding | cortical synaptosomes | with: [3H]-AMPA | > 100000 nM
